Published values of several laboratories.
Each numbered part is a random draw from the data of one study; scales do not carry over between parts. Substitutions count along the parent as printed.
Chain of UniProt O15294 (whole entry, looked up): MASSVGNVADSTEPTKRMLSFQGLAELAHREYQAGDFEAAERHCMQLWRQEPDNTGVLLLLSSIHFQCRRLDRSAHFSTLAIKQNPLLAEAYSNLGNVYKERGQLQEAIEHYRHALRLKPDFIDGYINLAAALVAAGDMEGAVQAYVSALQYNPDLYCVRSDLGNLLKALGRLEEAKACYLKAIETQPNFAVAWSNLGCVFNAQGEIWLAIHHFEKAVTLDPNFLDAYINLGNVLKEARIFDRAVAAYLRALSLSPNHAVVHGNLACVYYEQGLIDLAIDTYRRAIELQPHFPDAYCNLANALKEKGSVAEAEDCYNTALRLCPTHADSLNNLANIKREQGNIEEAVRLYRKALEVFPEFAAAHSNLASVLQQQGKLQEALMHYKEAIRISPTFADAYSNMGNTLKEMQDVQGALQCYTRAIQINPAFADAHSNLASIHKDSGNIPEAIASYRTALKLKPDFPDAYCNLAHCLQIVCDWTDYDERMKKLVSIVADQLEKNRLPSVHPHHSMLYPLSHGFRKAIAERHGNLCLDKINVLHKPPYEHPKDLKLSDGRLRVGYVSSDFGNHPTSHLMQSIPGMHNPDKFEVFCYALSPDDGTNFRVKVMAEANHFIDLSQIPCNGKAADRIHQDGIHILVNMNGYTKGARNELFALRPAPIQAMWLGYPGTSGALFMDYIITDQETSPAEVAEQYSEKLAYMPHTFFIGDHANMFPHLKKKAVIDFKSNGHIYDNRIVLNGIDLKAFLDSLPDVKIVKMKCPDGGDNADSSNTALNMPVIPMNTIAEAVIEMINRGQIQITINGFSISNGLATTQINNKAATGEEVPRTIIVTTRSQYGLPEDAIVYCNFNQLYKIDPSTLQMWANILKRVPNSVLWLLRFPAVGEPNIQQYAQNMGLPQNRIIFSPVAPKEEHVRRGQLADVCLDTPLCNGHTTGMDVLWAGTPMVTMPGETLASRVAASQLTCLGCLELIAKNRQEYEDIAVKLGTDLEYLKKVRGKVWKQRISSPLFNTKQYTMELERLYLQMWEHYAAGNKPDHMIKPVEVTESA

Set 1 — method: RNA Bind-n-Seq; form: RNA; matrix: in vitro; concentration: 365 nM; relative to: no-protein control; direction: higher = stronger binding; measurement: RBNS enrichment (R)
Target: RNA binding protein fox-1 homolog 2, RRM domain, GST-SBP tag (RBFOX2, Homo sapiens, UniProt O43251-10, residues 100-194)
Setting: natural RNA segment, single round, ends assumed
All sequences stand within: GGGAGUUCUACAGUCCGACGAUC … UGGAAUUCUCGGGUGCCAA
Residues (chain): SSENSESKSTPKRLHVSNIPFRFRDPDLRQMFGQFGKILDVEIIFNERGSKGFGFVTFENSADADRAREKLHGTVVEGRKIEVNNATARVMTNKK
Sequence = UUUGCGGGGGGGCCCUACUGUACUGAGGGGAAACCCACAAGUGAGCAUGGGGGAAUGCCCAUCCUGGAGAAGAAUUCUUGCCCUCCCCUCUCUUCUCCUCCCAACCAAAA; value = 1.18
Sequence = GUCCAGUUUUUCUUUUUCCCUCUCAUAUAUUUGUAACCUGGGUCCUAAACUGACUGAAGAGUUUGUCCUGACUUUAUUAAUUGCAGUCUCACAGAAUGCUCAUCAUUCUC; value = 0.516
Sequence = GACUAAGACUGGUCUUCUCAGAUGCCCUGCUUAAAUCAGGGGCACUUCAGGCUCCACAGGCGUCAUGUUGGACUGAGACCUAACUCACUGGACUCAGAGGAGGAAUCGUG; value = 0.378
Sequence = AUUAGUGCGAGGCAAACAUAACUCAUUUGAGGAUAAAGUUUGUGUUGGAUAUGUGGUUCCUGAUGCAUUUUGACUUGUCUUUUUAAAUGCUUUAUCUUUUUCUUUAAAGA; value = 1.1
Sequence = UGUGUACAAUCUUGGGCACUGAUUCCAUCAGUAGUAUCUUGUACCAUCCAAGGAGAGGGCCAGGAAAACAUCCACCAUCAAAUGGUUUUCCAGCUCCCUCAUCUCUUCAA; value = 0.274
Sequence = CUAUUAUUUGUUUUCAAUGUAUAAAGGCAGUAUUUCCCUUUUCAGGUUGCUGAGAAAUGUAAGAGGAGCUGAAGUACAUUGUAUGCAGUUACUGACUGCUUUAGGCAUAG; value = 0.343
Sequence = UAUAAAGCCAGGUGUCUUAGCUAGAUAUAUUUCCAGUCUUUUAACUUUGACACUGUGAAGCUCUAAGGAUACAAUAGGAAUGAAGACAGAGGAAGAAAAACUAAAGAGUC; value = 0.564
Sequence = ACAGAGUAAAUCAAUUUCUUAAAUUGUUUAACUUUCACGGUACUUCUUGGAAACAAUGACAUUAAACAUAGAUUUGUGCCUUUGUGGCUCAGCCUGCUCUUUCAUAGUCA; value = 0.247

Set 2 — target: CEBPE, bZIP domain (human); method: DHFR protein complementation; matrix: yeast; relative to: wild-type JUN-FOS pair; direction: higher = stronger binding; measurement: binding fitness
Setting: single substitutions, most at no-binding floor
Starting sequence: JUN, bZIP domain (human); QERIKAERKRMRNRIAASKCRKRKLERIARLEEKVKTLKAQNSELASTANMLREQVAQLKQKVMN; partner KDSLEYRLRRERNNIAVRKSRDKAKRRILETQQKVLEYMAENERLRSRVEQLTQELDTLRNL
Substitution = K39C; value = -1.34 natural log
Substitution = A29I; value = -1.16 natural log
Substitution = A49N; value = -1.48 natural log
Substitution = N42I; value = -1.42 natural log
Substitution = A40Y; value = -1.3 natural log
Substitution = K36V; value = -1.23 natural log
Substitution = K39P; value = -1.51 natural log
Substitution = L38E; value = -1.51 natural log

Mixed results
Substance = UQCC2 (Homo sapiens, UniProt Q9BRT2); tested on = UQCC1 (Homo sapiens, UniProt Q9NVA1); assay = cross-linking MS; setting = hits only; measurement = interaction screen; value = cross-linked
Substance = NFMPFYPITITAIES; tested on = UDP-N-acetylglucosamine--peptide N-acetylglucosaminyltransferase 110 kDa subunit (OGT, Homo sapiens, UniProt O15294); assay = binding, phage display NGS; test system = peptide; setting = concentration not given; how to read = relative to: input library; measurement = enrichment fold change; value = 14.2
Substance = NOL8 (Homo sapiens, UniProt Q76FK4); tested on = LRRC59 (Homo sapiens, UniProt Q96AG4); assay = cross-linking MS; test system = cell fractions; setting = added: DSSO; measurement = cross-linked residues; value = K279 to K73
Substance = TIMM8A (Homo sapiens, UniProt O60220); tested on = TIMM13 (Homo sapiens, UniProt Q9Y5L4); assay = cross-linking MS; setting = hits only; measurement = interaction screen; value = cross-linked
Substance = PPP2R1A (Homo sapiens, UniProt P30153); tested on = CCDC6 (Homo sapiens, UniProt Q16204); assay = cross-linking MS; test system = cell fractions; setting = added: DSSO; measurement = cross-linked residues; value = K331 to K71

For quick reference, copied from above (mixed results):
Substance = TIMM8A (Homo sapiens, UniProt O60220); tested on = TIMM13 (Homo sapiens, UniProt Q9Y5L4); assay = cross-linking MS; setting = hits only; measurement = interaction screen; value = cross-linked
Substance = NOL8 (Homo sapiens, UniProt Q76FK4); tested on = LRRC59 (Homo sapiens, UniProt Q96AG4); assay = cross-linking MS; test system = cell fractions; setting = added: DSSO; measurement = cross-linked residues; value = K279 to K73
Substance = NFMPFYPITITAIES; tested on = UDP-N-acetylglucosamine--peptide N-acetylglucosaminyltransferase 110 kDa subunit (OGT, Homo sapiens, UniProt O15294); assay = binding, phage display NGS; test system = peptide; setting = concentration not given; how to read = relative to: input library; measurement = enrichment fold change; value = 14.2
